Assay results collected from several papers.
“And” joins repeats or separate records; there may be more than shown. Numbers after ± are the reported error.
USP16 ZnF-UBD domain: Ubiquitin carboxyl-terminal hydrolase 16, ZnF-UBD domain (USP16, Homo sapiens, UniProt Q9Y5T5)
UniProt Q9Y5T5, sequence (whole entry, looked up): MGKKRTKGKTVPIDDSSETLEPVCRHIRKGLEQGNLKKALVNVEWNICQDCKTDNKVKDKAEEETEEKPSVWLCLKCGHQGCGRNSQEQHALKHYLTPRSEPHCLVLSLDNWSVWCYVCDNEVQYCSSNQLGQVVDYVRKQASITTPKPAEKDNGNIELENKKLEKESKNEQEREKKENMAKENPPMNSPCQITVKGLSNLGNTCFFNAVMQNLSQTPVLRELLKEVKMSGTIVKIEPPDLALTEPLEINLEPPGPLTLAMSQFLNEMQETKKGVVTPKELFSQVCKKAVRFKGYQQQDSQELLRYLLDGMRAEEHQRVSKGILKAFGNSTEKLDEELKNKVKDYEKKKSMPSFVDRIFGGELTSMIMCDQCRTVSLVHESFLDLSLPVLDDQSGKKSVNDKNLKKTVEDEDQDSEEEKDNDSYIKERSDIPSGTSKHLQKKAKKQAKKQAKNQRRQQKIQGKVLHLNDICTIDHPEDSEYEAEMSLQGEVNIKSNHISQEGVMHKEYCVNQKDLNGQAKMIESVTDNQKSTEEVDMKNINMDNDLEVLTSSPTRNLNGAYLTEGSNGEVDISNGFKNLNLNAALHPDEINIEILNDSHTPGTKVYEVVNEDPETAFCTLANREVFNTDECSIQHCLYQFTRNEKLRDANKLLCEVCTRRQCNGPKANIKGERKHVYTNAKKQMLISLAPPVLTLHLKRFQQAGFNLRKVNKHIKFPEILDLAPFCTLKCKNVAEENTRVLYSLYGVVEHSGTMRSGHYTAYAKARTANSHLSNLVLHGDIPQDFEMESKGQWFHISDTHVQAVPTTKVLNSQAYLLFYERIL
Kir3.1/Kir3.4: Kir3.1/Kir3.4 (Homo sapiens, UniProt P48544+P48549)
UniProt P48544, sequence (whole entry, looked up): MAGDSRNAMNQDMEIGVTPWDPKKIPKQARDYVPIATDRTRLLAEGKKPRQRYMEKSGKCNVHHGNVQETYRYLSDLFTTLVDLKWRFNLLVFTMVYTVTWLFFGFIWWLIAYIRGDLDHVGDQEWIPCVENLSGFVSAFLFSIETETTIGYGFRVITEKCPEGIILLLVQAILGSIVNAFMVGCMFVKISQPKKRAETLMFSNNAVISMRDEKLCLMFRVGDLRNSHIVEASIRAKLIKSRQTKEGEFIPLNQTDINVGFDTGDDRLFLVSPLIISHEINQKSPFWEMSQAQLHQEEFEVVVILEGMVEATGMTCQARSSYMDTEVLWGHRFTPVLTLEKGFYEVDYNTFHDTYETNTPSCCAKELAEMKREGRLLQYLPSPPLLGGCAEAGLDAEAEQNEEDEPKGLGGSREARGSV
UniProt P48549, sequence (whole entry, looked up): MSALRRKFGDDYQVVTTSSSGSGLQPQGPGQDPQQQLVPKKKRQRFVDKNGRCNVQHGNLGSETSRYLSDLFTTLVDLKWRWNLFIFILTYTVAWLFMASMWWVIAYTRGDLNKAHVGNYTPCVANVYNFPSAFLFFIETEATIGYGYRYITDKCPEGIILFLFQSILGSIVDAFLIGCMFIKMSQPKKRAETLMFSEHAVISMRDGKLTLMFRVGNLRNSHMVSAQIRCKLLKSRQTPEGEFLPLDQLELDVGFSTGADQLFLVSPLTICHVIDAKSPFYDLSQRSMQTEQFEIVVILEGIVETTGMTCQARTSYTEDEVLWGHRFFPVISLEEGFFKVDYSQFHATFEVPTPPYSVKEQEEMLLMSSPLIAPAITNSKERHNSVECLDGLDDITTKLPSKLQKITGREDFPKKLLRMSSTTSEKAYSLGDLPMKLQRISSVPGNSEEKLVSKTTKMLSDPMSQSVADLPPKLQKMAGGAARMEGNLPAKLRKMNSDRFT
SLC18B1 M48A: MFS-type transporter SLC18B1 (SLC18B1, Homo sapiens, UniProt Q6NT16, M48A)
UniProt Q6NT16, sequence (whole entry, unmodified, looked up): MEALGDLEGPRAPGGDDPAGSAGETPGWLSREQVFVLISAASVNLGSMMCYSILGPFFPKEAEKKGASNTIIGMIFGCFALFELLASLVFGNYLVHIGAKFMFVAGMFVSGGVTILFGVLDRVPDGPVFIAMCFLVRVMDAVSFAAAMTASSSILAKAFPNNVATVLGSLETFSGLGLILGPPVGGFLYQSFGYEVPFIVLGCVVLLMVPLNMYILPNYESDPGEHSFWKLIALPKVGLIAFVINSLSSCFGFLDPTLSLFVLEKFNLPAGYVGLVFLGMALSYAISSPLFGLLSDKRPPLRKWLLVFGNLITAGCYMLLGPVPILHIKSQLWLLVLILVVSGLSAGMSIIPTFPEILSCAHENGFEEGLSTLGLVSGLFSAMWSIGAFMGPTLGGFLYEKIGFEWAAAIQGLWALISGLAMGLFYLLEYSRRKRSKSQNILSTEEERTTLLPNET
DNMT1: DNA (cytosine-5)-methyltransferase 1 (DNMT1, Homo sapiens, UniProt P26358)
UniProt P26358, sequence (whole entry, looked up): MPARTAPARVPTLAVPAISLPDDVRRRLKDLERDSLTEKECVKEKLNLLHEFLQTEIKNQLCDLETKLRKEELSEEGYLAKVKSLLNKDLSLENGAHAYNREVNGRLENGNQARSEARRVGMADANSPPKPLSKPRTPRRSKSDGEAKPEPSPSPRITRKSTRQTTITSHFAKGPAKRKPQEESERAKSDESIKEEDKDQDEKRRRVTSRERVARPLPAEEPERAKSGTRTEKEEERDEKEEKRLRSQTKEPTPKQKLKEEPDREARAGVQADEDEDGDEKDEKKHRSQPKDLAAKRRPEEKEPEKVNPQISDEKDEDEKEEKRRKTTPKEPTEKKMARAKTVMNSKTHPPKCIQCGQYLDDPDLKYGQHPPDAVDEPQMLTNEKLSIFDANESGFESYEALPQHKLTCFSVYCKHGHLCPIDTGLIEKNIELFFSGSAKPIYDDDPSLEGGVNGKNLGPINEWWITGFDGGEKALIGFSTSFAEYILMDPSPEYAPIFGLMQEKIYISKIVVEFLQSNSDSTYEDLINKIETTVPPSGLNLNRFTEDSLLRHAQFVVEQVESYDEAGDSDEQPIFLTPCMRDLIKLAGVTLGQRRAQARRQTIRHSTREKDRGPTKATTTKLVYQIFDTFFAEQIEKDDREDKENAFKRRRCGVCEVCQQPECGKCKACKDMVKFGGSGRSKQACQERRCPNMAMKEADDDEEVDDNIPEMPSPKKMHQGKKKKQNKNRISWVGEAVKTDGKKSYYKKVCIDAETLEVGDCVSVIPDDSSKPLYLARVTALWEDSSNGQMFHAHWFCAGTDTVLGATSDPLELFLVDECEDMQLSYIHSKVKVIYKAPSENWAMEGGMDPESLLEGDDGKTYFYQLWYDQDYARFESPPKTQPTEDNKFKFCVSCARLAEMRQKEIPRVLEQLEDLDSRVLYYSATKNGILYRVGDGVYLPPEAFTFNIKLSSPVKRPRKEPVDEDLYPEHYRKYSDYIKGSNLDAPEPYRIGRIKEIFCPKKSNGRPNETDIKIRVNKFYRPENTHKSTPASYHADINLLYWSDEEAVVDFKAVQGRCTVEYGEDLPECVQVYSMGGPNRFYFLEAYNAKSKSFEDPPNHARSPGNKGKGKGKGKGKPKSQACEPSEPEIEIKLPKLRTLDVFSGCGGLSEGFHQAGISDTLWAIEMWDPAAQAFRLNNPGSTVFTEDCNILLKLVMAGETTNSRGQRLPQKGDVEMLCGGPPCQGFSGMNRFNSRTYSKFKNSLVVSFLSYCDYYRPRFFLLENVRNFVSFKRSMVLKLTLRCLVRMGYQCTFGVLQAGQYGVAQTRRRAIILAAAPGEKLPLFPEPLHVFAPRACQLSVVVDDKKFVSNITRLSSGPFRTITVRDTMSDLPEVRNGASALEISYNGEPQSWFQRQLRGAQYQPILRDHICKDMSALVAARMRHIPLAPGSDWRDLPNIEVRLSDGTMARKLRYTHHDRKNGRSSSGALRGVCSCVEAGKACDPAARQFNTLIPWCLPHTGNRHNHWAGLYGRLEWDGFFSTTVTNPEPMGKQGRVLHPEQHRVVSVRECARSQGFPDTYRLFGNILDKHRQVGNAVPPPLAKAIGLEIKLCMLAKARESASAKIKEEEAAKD
UniProt Q6P2M8, sequence (whole entry, looked up): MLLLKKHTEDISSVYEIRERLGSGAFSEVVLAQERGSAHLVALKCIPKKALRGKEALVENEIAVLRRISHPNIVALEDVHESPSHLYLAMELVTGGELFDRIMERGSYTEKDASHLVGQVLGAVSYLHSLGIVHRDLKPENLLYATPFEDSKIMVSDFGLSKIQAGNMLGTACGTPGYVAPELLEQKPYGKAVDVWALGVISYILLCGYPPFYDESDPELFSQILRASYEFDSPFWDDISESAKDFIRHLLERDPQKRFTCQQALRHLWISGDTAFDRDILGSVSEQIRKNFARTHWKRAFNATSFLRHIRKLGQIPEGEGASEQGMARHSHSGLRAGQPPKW
UniProt Q9R1P1, sequence (whole entry, looked up): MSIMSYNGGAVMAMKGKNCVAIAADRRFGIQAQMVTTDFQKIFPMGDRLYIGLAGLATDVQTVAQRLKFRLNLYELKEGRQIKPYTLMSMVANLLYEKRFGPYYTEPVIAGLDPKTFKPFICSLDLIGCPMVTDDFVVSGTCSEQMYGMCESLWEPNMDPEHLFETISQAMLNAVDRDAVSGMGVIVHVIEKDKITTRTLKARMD
UniProt P70195, sequence (whole entry, looked up): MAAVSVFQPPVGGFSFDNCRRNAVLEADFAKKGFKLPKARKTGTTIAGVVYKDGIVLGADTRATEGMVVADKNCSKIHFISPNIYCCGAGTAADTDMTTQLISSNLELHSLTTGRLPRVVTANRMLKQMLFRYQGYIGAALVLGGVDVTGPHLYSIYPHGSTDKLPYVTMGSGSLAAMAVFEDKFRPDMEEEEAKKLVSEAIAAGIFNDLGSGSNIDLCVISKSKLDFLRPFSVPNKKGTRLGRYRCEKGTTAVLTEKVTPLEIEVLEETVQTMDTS
UniProt P41146, sequence (whole entry, looked up): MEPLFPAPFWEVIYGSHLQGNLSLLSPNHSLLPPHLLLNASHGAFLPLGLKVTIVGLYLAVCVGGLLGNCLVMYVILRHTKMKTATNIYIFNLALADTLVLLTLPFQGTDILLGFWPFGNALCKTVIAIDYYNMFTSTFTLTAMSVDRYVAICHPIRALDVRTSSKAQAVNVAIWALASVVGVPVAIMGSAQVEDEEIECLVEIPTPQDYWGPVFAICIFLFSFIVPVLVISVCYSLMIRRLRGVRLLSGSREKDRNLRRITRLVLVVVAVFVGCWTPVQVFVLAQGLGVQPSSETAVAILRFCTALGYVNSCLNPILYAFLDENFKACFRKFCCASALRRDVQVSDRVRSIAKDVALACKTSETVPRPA

The Kd of `O=C(O)CCn1ccccc1=O` is reported as greater than 1000 µM (USP16 ZnF-UBD domain).
`N=C(N)NCCCC(=O)O` — result for “log2 fold change”: -0.149 (binding, MIDAS equilibrium dialysis LC-MS; A2AR-BRIL thermostabilized; concentration not given; reference: no-protein control).
For `Cc1c(-c2ccc(N3CCc4cccc(C(=O)Nc5nc6ccccc6s5)c4C3)nc2C(=O)O)cnn1CC12CC3(C)CC(C)(C1)CC(OCCNCC[C@H](O)CO)(C3)C2`, “cardiac output change” read -20% (anaesthetised male beagle dogs; intravenous infusion, 0.3 mg/kg/min, 60 min; reference: vehicle).
With `O=C(COc1ccc(C(F)(F)F)cc1C(F)(F)F)Nc1cc(C2CCC2)nn1C1CCC(F)(F)CC1` the EC50 was 8800 nM (Kir3.1/Kir3.4; activator, thallium flux; HEK293).
The remaining activity of `CCCOc1ccc(OC)c(F)c1C(=O)c1ccc(C(=O)N[C@@H]2CNC[C@H]2NC(=O)c2ccc3[nH]ncc3c2)cc1` is reported as 57% (CK1 (yeast); kinase activity; 10 µM).
The tissue uptake of `CC(C)C[C@H](NC(=O)C[C@H](O)[C@H](CC(C)C)NC(=O)[C@H](Cc1c[nH]cn1)NC(=O)CNC(=O)[C@@H](NC(=O)[C@H](C)NC(=O)[C@H](Cc1c[nH]c2ccccc12)NC(=O)[C@H](CCC(N)=O)NC(=O)[C@@H](Cc1ccccc1)NC(=O)COCCOCCNC(=O)CCC(C(=O)O)N1CCN(CC(=O)O)CCN(CC(=O)O)CCN(CC(=O)O)CC1)C(C)C)C(N)=O` (some centres unmarked) [lutetium-177 labelled] is reported as 4 ± 2 %ID/g (BALB/c nu/nu mice, stomach; intravenous, 50 pmol, 1 h, added: PA 300 µg).
With `O=C(COc1cccc(Cl)c1Cl)Nc1cc(C2CCC2)nn1C1CCC(F)(F)CC1` the EC50 was 10000 nM (Kir3.1/Kir3.4; activator, thallium flux; HEK293).
The Kd of `Cc1cc(NC(=O)CCC(=O)O)nn1C` is reported as 193 µM (USP16 ZnF-UBD domain).
`CC(C)[C@H](NC(=O)[C@H](Cc1ccc(O)cc1)NC(=O)[C@H](Cc1ccc(O)cc1)NC(=O)[C@@H]1CCCN1C(=O)[C@H](CCC(=O)O)NC(=O)[C@H](CCC(=O)O)NC(=O)[C@H](Cc1c[nH]c2ccccc12)NC(=O)[C@@H]1CCCN1C(=O)[C@@H](NC(=O)[C@H](CCC(N)=O)NC(=O)c1ccc2c(c1)C(=O)OC21c2ccc(O)cc2Oc2cc(O)ccc21)C(C)C)C(=O)N[C@H](C(=O)N[C@@H](CCCCN)C(=O)N[C@@H](CCCCN)C(=O)N[C@@H](CO)C(=O)N[C@@H](CO)C(=O)NCC(=O)NCC(N)=O)C(C)C` gave a plasma concentration of 485 ng/mL and 387 ng/mL (human, plasma; intravenous infusion, 400 mg, 2 h after infusion start).
`CCc1cc(NC(=O)COc2ccc(Cl)cc2Cl)n(C2CCOCC2)n1` has an EC50 of 330 nM (Kir3.1/Kir3.4; activator, thallium flux; HEK293).
`N#Cc1ccc([C@H]2CCc3cncn32)c(F)c1` has a Ki of 1.97 ± 0.397 µM (Cytochrome P450 2D6 (CYP2D6, Homo sapiens, UniProt P10635); inhibitor, measured: bufuralol 1'-hydroxylation; pooled human liver microsomes; pH 7.4, added: bufuralol).
For `COc1cc2ccc(=O)oc2cc1O`, the Ki was 294 ± 91 µM (uncharacterized protein (Solanum tuberosum, UniProt M0ZZL3); substrate inhibition; added: 100 µM UDP-glucose).
`CCc1cc(/C(C)=N/OCc2ccc(C3CCCCC3)c(C(F)(F)F)c2)ccc1CN1CC(C(=O)O)C1` has a Ki of 0.732 µM (SLCO1B3 (Homo sapiens, UniProt Q9NPD5); inhibitor; HEK293 transfected with SLCO1B3; 3 min, added: estradiol-17β-glucuronide 1 µM).
`CCCCC/C=C\C/C=C\CCCCCCCC(=O)O` has a Ki of 46.4 ± 9.93 µM (Cytochrome P450 2J2 (CYP2J2, Homo sapiens, UniProt P51589, L2A); enzyme activity, competitive inhibitor; nanodiscs with CPR, added: arachidonic acid).
For `COc1cc2c(cc1OC)[C@H]1C[C@@H](O)[C@H](CC(C)C)CN1CC2`, the Kd was 44.5 µM (SLC18B1 M48A; binder; radiolabeled protein variants).
`CCc1c(C#N)c(SC(C(N)=O)c2ccccc2)nc(N(C)CC(=O)NC)c1C#N` (centres unmarked) gave a DC50 of 40 nM and < 50 nM (DNMT1; degrader, Western blot; HCT-116; 24 h, range 0.01 to 1 µM).
`Cn1cc(-c2ccc(-c3cncc(Cl)c3N3CCC4(CCNC4=O)CC3)cc2)cn1`: “log2 fold change” 2.53 (COLO 205; gene expression, microarray, measured: KITLG mRNA; concentration not given, 6 h; reference: untreated cells).
The Kd of `O=C(O)Cn1cc2ccccc2n1` is reported as greater than 1000 µM (USP16 ZnF-UBD domain).
`O=C(COc1ccc(Cl)cc1Cl)Nc1cc(C2CC2)nn1CC(F)(F)F` gave an EC50 of 977 nM (Kir3.1/Kir3.4; activator, thallium flux; HEK293).
`O=C(O)[C@@H](O)[C@H](O)[C@H](O)[C@@H](O)C(=O)O` — result for “log2 fold change”: -0.17 (binding, MIDAS equilibrium dialysis LC-MS; A2AR-BRIL thermostabilized; concentration not given; reference: no-protein control).
With `CCc1cc(NC(=O)COc2cccc(Cl)c2Cl)n(CC(F)(F)F)n1` the EC50 was 1070 nM (Kir3.1/Kir3.4; activator, thallium flux; HEK293).
`COc1cc(Nc2ncc3c(n2)-c2ccc(Cl)cc2C(c2c(F)cccc2OC)=NC3)ccc1C(=O)NCCOCCOCCNC(=O)COc1cccc2c1C(=O)N(C1CCC(=O)NC1=O)C2=O` (centres unmarked) gave an EC50 of greater than 30000 nM (Adenylate kinase 2, mitochondrial (Homo sapiens, UniProt P54819); binding, kinobead competition; MV4-11 cell lysate).
The Ki of `OC[C@H]1OC(O)[C@H](O)[C@@H](O)[C@@H]1O` (some centres unmarked) is reported as 5100 ± 500 µM (Hexokinase-3 (HK3, Homo sapiens, UniProt P52790, D264A/R265A); substrate inhibition; mutant D264A/R265A, partial substrate inhibition model, added: ATP 20 mM).
The Kd of `NCCCNCCCCNCCCN` is reported as 54 µM (SLC18B1 M48A; binder).
`CSc1nc(C)c(CCC(=O)O)c(=O)[nH]1` gave a Kd of 118 µM (USP16 ZnF-UBD domain).
The DC50 of `CCc1c(C#N)c(SC(C(N)=O)c2ccccc2)nc(N2CCN(C(=O)c3ccco3)CC2)c1C#N` (centres unmarked) is reported as less than 50 nM (DNMT1; degrader, Western blot; HCT-116; 24 h, range 0.01 to 1 µM).
`CCn1c(-c2nc3cc(C(=O)N4CCC[C@@H](N)C4)cc(OC)c3n2C)cc2cccnc21` has an IC50 of greater than 15800 nM (CACNA1C (Homo sapiens, UniProt Q13936); antagonist, intracellular Ca2+ fluorescence; human cells).
`O=c1n(CCCN2CCN(c3cccc(Cl)c3)CC2)nc2ccccn12` has a Ki of greater than 10 µM (Nociceptin receptor (OPRL1, Homo sapiens, UniProt P41146)).
The IC50 of `CN1CCN(c2ccc(Nc3ncc4cc(C#N)c(=O)n(C5CCCC5)c4n3)cc2)CC1` is reported as 2340 nM (PNCK (Homo sapiens, UniProt Q6P2M8)).
The Kd of `O=C(O)Cc1nc2ccccc2[nH]1` is reported as greater than 1000 µM (USP16 ZnF-UBD domain).
`CCCNC(=O)C(Sc1nc(N2CCC(N)CC2)c(C#N)c(CC)c1C#N)c1ccccc1` (centres unmarked) has a DC50 of greater than 1000 nM (DNMT1; degrader, Western blot; HCT-116; 24 h, range 0.01 to 1 µM).
`CC[C@H](C)C(=O)N1CCC(NC(=O)Nc2ccc(OC(F)(F)F)c(F)c2)CC1` gave a percent recovery of 81% (Caco-2; Caco-2 permeability; 10 µM, 60 min, pH 7.4 apical, 7.4 basolateral, replicate 1; basolateral to apical).
With `N#Cc1c2n(c3c(=O)n(CC(=O)O)cnc13)CCCC2` the Kd was 403 µM (USP16 ZnF-UBD domain).
`CC(C)C[C@H](NC(=O)[C@H](CCc1ccccc1)NC(=O)CN1CCOCC1)C(=O)N[C@@H](Cc1ccccc1)C(=O)N[C@@H](CC(C)C)C(=O)[C@@]1(C)CO1` gave an IC50 of 114 ± 6.36 nM (Psmb7/Psmb3, β2 subunit (Mus musculus, UniProt P70195+Q9R1P1); proteasome subunit activity; Ba/F3 BCR-ABL1 H396P; 1 h pulse).
`O=C(O)CNc1ncccn1` has a Kd of greater than 1000 µM (USP16 ZnF-UBD domain).
With `CCCC[C@H](NC(=O)[C@H](C)c1c(C)[nH]c2ccc(O)cc12)c1ncc(-c2cc3ccccc3nc2OC)[nH]1` the Ki was 6.32 µM (MCHR1 (Homo sapiens, UniProt Q99705); binding).
`CCc1c(C#N)c(SC(C(N)=O)c2ccccc2)nc(N2CCC(NC(C)=O)CC2)c1C#N` (centres unmarked) has a DC50 of greater than 1000 nM (DNMT1; degrader, Western blot; HCT-116; 24 h, range 0.01 to 1 µM).
With `O=C(O)CCN1C(=O)c2ccccc2S1(=O)=O` the Kd was greater than 1000 µM (USP16 ZnF-UBD domain).

Excerpt of the above:
The remaining activity of `CCCOc1ccc(OC)c(F)c1C(=O)c1ccc(C(=O)N[C@@H]2CNC[C@H]2NC(=O)c2ccc3[nH]ncc3c2)cc1` is reported as 57% (CK1 (yeast); kinase activity; 10 µM).
The Kd of `NCCCNCCCCNCCCN` is reported as 54 µM (SLC18B1 M48A; binder).
The Kd of `O=C(O)Cc1nc2ccccc2[nH]1` is reported as greater than 1000 µM (USP16 ZnF-UBD domain).
With `CCc1cc(NC(=O)COc2cccc(Cl)c2Cl)n(CC(F)(F)F)n1` the EC50 was 1070 nM (Kir3.1/Kir3.4; activator, thallium flux; HEK293).
